Measurements collected from several papers.
Parts stem from different laboratories: compare values within a part only. Changes are numbered by the printed parent chain.

Block 1
Target: Sal-like protein 4, full length isoform A (SALL4, Homo sapiens, UniProt Q9UJQ4, residues 1-1053)
Chain of UniProt Q9UJQ4 (whole entry, looked up): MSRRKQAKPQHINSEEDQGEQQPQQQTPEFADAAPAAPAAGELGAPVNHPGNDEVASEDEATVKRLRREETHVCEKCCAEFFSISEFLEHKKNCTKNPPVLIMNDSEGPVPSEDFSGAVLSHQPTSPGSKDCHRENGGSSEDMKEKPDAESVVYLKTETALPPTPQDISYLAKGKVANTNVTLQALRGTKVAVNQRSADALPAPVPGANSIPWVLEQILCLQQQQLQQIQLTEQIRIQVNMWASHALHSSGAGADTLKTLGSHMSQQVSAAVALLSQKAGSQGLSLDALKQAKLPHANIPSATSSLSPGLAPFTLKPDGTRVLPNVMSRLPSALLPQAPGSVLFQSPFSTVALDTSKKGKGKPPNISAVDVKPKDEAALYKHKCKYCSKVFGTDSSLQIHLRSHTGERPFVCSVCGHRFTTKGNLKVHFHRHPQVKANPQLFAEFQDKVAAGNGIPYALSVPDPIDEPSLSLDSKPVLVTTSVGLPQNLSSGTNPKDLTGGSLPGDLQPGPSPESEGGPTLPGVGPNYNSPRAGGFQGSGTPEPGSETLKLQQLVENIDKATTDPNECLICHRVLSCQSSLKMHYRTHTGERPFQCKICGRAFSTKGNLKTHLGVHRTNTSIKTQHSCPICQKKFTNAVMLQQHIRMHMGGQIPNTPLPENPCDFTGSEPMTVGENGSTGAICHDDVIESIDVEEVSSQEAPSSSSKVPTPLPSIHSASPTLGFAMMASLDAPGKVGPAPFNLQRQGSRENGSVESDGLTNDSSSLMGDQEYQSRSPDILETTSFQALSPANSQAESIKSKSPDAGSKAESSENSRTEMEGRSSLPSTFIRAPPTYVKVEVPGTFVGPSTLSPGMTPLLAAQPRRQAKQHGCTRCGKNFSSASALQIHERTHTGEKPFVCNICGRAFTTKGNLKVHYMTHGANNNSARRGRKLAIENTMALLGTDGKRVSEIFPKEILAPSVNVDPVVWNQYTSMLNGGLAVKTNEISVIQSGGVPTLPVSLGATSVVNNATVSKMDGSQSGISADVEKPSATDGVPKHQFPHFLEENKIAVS
Technique: universal PBM
Form: double-stranded DNA, one strand shown
Medium: in vitro
Tested at: 600 nM
Notes: 8-mer, flanks averaged, mean of replicates
Reading: higher = stronger binding
For `CTAAGGGA`, the E-score was -0.0906.
With `GATTTGGA` the E-score was 0.179.
`GCAGTCCC` gave an E-score of -0.3.
With `AGCGAAGG` the E-score was -0.172.
For `CTAAGTCA`, the E-score was 0.0705.
For `CACCAGTG`, the E-score was -0.187.
`ACGTTAAC` has an E-score of 0.0935.
For `AAATTTTG`, the E-score was 0.29.

Block 2
Target: Fragile X messenger ribonucleoprotein 1, C-terminal low-complexity region (Fmr1, Mus musculus, UniProt P35922)
Technique: RNA Bind-n-Seq
Form: RNA
Medium: in vitro
Tested at: 200 nM
Notes: whole 134-nt RNA, ends assumed
With: 150 mM KCl
Relative to: input library
Reading: higher = stronger binding
Constant ends, left off below: GGGAGUUCUACAGUCCGACGAUC … UGGAAUUCUCGGGUGUCAAGG
`CUCAAGUCCUGUGCUACACAUCGUAUGUACCGAAUCGGGCCGGGGCCGGCCGGAAAGUAUUAUGUUACGCCGUUCGGAUCUGCACUUCCA` has a log2 enrichment of -0.169.
`UCAAGUCCUGUGCUACACAUCGUAUGUACCGAAUCGGGGUUGGGGUUGGUUGGGAAAGUAUUAUGUUACGCCGUUCGGAUCUGCACUUCC` has a log2 enrichment of 0.784.
For `AAGUCCUGUGCUACACAUCGUAUGUACCGAAUCGGCCCCGGGCCCCGGGCCCCGGGAAAGUAUUAUGUUACGCCGUUCGGAUCUGCACUU`, the log2 enrichment was -0.796.
`CUCAAGUCCUGUGCUACACAUCGUAUGUACCGAAUCGGCCGGGGCCGGCCGGGAAAGUAUUAUGUUACGCCGUUCGGAUCUGCACUUCCA` has a log2 enrichment of -0.305.
`CAAGUCCUGUGCUACACAUCGUAUGUACCGAAUCGGAGGAAAAAAAGGAAAAAGGAAAGUAUUAUGUUACGCCGUUCGGAUCUGCACUUC` has a log2 enrichment of -0.52.
With `UGGGAGGUGGAUUUUGUUUAUUUUUUUAGCUCAUUUCCAGGGGUGGGAAUUUUUUUUUAAUAUUUGUCAUGAAUAAAGUUGUUUUUGAAA` the log2 enrichment was 0.0958.
The log2 enrichment of `UGGGAGGUGGAUUUUGUUUAUUUUUUUAGCUCAUUUCCAGGGGUGGGAAGUUUUUUUUAAUAUGUGUCAUGAAUAAAGUUGUUUUUGAAA` is reported as 0.459.
`UGGGAGGAGGAUUUUGUUUAUUUUUUUAGCUCAUUUCCAGGGGUGGGAAUUUUUUUUUAAUAUGUGUCAUGAAUAAAGUUGUUUUUGAAA` has a log2 enrichment of -0.362.
`GCAGGAAGUAAAAACAAAUGGAAAUGCUUCGGAUAGUGGCAGGGGUGGGGGUUGCUAAGGAAAGGGUGGGAUGGGAUUGGGUAAAGAGUU` has a log2 enrichment of 0.262.

Further values, each from its own experiment
CCNA1: CCNA1, cyclin fold, Cln2 fusion (human)
P1: SCAPER docking peptide (human); SNARRSLNFGGST; partner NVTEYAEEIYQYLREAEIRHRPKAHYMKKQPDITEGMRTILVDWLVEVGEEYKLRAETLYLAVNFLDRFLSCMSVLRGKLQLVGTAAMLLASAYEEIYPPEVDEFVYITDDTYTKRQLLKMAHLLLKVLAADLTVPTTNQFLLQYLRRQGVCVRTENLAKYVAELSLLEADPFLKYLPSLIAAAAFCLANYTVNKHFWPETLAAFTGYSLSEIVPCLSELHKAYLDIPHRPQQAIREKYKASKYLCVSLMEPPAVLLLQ
`P1 G11C` — result for “normalised enrichment score”: 0.601 (CCNA1; yeast growth competition, sequencing; yeast; weak parent motif; relative to: not given, higher = stronger binding).
For `PhoQ, residues 284 288 289 292 302 303 NLCILV`, the fold induction was 7.39 (PhoP, residues 12 14 15 18 19 LHHSG (Escherichia coli, UniProt P23836); Sort-seq, item: YFP reporter; E. coli; PhoQ-PhoP variant library, with: 10 µM Mg2+; relative to: high Mg2+ state, higher = stronger signaling).
`P1 N2P`: “normalised enrichment score” 0.644 (CCNA1; yeast growth competition, sequencing; yeast; weak parent motif; relative to: not given, higher = stronger binding).

A few entries again (block 1):
`ACGTTAAC` has an E-score of 0.0935.
`GCAGTCCC` gave an E-score of -0.3.
